Published values pooled from the literature.
Numbered parts are unrelated; each lists some results of a single study. “And” joins repeats or separate records; there may be more than shown.
Chain of UniProt P10721 (whole entry, looked up): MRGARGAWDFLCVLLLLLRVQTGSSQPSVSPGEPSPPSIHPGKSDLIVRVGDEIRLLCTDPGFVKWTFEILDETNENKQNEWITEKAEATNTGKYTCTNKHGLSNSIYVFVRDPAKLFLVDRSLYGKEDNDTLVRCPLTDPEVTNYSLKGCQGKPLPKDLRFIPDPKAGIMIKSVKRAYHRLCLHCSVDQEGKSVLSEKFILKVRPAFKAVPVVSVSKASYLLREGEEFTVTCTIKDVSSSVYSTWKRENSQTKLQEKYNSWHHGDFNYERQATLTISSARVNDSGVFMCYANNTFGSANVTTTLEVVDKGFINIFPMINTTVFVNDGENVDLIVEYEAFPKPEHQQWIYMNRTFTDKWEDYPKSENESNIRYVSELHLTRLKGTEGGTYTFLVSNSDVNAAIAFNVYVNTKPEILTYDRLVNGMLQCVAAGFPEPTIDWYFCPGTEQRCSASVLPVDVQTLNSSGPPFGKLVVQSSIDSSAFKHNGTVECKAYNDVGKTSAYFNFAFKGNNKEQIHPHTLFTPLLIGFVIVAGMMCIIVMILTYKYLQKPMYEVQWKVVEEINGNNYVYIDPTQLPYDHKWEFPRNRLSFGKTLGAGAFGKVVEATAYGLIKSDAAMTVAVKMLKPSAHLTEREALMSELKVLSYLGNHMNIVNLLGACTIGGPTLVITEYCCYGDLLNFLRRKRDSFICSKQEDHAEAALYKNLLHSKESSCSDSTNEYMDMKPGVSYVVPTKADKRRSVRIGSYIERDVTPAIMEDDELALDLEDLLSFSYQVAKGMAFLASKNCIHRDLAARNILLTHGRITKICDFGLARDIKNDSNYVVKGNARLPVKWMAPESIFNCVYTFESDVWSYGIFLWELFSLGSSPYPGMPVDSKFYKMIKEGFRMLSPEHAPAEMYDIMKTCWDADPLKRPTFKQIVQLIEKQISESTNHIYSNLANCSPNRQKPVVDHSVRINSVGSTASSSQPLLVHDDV
Chain of UniProt Q8NI60 (whole entry, looked up): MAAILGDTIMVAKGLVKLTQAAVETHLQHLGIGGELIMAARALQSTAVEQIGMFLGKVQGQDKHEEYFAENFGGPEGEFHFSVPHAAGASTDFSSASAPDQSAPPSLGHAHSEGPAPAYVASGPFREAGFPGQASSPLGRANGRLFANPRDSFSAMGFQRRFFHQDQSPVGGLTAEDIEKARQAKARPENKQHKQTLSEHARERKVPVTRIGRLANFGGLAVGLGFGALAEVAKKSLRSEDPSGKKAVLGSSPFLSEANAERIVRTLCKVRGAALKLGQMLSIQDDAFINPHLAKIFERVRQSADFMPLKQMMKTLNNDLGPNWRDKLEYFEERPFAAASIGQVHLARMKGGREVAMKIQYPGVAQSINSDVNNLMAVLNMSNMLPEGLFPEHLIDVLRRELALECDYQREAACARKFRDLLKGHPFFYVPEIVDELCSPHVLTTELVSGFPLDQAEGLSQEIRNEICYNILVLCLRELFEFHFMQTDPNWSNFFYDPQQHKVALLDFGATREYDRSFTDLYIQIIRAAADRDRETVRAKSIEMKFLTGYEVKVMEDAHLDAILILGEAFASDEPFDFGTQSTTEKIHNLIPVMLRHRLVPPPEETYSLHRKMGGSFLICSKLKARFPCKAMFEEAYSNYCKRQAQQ
Chain of UniProt O15075 (whole entry, looked up): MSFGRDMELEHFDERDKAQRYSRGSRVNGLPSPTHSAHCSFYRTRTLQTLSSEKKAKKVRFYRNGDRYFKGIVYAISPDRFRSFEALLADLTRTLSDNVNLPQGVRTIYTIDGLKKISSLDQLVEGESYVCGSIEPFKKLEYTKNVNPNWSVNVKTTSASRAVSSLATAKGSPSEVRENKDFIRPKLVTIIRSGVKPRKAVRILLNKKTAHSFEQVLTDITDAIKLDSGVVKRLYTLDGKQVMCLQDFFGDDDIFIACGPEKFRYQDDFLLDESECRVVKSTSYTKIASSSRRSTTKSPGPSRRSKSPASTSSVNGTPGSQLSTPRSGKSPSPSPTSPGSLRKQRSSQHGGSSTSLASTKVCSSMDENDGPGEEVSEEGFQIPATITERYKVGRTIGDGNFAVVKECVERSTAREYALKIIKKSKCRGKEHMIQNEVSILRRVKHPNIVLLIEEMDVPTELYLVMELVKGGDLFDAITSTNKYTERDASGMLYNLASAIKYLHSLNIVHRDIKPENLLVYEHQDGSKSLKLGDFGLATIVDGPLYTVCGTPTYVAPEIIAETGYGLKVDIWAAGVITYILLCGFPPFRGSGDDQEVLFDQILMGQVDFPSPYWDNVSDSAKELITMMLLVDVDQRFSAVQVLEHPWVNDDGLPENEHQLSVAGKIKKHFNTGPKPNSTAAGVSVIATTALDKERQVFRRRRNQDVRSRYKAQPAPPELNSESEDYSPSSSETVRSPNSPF
Chain of UniProt Q9BX84 (whole entry, looked up): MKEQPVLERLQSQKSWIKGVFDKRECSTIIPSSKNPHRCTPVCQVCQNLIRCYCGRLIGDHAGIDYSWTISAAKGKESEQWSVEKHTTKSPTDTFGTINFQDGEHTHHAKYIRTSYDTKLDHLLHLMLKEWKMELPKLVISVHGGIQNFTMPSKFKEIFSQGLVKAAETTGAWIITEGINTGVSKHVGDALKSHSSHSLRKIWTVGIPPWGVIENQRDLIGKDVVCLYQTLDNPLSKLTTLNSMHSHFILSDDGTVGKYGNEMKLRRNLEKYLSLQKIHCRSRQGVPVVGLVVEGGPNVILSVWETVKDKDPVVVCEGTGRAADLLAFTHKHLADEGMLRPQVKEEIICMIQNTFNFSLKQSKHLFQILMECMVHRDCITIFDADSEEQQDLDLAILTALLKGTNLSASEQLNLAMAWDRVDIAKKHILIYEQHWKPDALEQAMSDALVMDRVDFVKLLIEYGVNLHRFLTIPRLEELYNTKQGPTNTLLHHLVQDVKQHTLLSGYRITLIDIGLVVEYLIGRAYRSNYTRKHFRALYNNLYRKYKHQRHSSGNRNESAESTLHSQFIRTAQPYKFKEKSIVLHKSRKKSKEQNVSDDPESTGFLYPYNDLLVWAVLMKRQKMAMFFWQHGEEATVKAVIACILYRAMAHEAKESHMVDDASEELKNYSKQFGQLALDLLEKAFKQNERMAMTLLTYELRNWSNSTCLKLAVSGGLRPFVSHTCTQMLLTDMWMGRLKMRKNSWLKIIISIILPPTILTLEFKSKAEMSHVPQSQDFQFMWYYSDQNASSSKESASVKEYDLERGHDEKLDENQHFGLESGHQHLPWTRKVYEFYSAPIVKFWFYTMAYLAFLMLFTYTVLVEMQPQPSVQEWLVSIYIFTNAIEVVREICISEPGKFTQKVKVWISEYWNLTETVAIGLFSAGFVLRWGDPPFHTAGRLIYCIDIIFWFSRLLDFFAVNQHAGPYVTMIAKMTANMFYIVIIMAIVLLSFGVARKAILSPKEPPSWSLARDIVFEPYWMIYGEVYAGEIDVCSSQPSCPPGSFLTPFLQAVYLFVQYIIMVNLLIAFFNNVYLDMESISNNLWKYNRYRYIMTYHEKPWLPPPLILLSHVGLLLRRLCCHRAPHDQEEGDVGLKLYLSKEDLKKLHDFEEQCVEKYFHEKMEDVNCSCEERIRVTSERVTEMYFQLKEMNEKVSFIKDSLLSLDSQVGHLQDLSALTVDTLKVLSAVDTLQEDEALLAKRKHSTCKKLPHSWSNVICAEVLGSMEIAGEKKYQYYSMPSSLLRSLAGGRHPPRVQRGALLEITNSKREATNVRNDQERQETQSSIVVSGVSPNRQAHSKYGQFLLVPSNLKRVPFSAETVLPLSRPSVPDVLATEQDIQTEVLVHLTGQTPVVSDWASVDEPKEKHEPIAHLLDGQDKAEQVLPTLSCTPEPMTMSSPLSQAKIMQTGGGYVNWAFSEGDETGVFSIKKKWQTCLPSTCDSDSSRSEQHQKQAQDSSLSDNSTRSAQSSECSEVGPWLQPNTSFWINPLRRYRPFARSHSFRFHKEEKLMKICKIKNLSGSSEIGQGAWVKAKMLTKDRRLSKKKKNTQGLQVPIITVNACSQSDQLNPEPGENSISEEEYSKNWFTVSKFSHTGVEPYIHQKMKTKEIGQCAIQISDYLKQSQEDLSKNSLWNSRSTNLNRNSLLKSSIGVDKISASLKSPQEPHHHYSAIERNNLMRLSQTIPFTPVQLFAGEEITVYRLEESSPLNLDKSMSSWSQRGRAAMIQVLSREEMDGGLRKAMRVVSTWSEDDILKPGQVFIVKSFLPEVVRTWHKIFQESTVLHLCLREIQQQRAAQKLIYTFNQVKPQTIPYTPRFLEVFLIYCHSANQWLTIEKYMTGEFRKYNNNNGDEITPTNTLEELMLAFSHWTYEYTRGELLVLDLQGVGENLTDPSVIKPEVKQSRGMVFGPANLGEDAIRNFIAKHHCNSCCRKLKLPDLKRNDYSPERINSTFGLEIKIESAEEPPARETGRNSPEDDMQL
Chain of UniProt Q9BQI3 (whole entry, looked up): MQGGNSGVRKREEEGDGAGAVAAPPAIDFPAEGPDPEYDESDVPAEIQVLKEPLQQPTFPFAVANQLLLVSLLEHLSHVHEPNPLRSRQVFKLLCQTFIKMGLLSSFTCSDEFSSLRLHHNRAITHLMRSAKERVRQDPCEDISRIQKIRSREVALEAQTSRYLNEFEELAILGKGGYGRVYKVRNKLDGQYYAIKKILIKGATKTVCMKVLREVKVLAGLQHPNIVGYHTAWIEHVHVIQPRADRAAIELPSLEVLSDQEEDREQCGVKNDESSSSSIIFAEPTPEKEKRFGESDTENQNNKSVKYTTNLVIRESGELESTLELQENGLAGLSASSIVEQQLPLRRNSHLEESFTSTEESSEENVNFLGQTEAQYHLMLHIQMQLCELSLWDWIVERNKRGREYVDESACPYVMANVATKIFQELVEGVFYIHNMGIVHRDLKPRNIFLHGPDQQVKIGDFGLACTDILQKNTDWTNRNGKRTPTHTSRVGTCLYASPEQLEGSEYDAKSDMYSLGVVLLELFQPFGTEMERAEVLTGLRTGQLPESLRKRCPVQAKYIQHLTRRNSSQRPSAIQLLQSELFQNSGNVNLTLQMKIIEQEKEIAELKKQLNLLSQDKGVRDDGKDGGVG

Block 1
Species: human
Sample: microsomes or S9
Tested at: 2 µM
Time: 0.5 h
Quantity: remaining compound
Cc1ccc(-c2nc(C(=O)N=C(N)N)c(C)[nH]2)cc1: 67%
COC(=O)c1cc2c(c(N(C)C)c1)OC(C)(C)C=C2: 0.0607%
CCOC(=O)c1cccc(NC(=O)N2Cc3c(sc4c3CCCC4)-n3cccc3C2C)c1 (centres unmarked): 0.291%

Block 2
Compound: C[C@H]1CC[C@H](n2c3cnccc3c3cnc(Nc4ccc5c(n4)CCN(C(=O)CO)C5)nc32)CC1
Tested at: 1 µM
Quantity: remaining binding
Hepatocyte growth factor receptor (MET, Homo sapiens, UniProt P08581); binding: 77%
Non-receptor tyrosine-protein kinase TNK1 (TNK1, Homo sapiens, UniProt Q13470); binding, competition with immobilised ligand: 34%
Citron Rho-interacting kinase (CIT, Homo sapiens, UniProt O14578); binding, competition with immobilised ligand: 60%
Macrophage-stimulating protein receptor (MST1R, Homo sapiens, UniProt Q04912); binding: 100%
Tyrosine-protein kinase Lyn (LYN, Homo sapiens, UniProt P07948); cell-free assay, competition with immobilised ligand: 76%

Block 3
SMILES: CC(C)C(=O)N1CCN(c2nc(OC[C@@H]3CCCN3C)nc3c2CCN(c2cccc4cccc(Cl)c24)C3)C[C@@H]1CC#N
Observed: binding
Mode: competitor
Technique: NanoBRET
Cells: HEK293
Quantity: normalized BRET
GTPase KRas (KRAS, Homo sapiens, UniProt P01116, Q61L); 412 nM: 96.8% and 102%
GTPase KRas (KRAS, Homo sapiens, UniProt P01116, G12D); 1.69 nM: 91.6% and 101%
GTPase KRas (KRAS, Homo sapiens, UniProt P01116, Q61R); 1.24 µM: 107% and 94.7% and 100%

Block 4
Structure (SMILES): C=CC(=O)N1CCC([C@@H]2CCNc3c(C(N)=O)c(-c4ccc(Oc5ccccc5)cc4)nn32)CC1
Tested at: 1 µM
Quantity: inhibition
MAP kinase-activated protein kinase 5 (MAPKAPK5, Homo sapiens, UniProt Q8IW41); enzyme activity, inhibitor: 17%
Mast/stem cell growth factor receptor Kit, autoinhibited (KIT, Homo sapiens, UniProt P10721); enzyme activity, inhibitor: 4%
Phosphatidylinositol 4-kinase beta (PI4KB, Homo sapiens, UniProt Q9UBF8); enzyme activity, inhibitor: 0%
Discoidin domain-containing receptor 2 (DDR2, Homo sapiens, UniProt Q16832); cell-free assay: 26%

Block 5
SMILES: COc1cc(-c2cn(C3CCc4c(F)cccc4N(CC(F)(F)F)C3=O)nn2)ccc1-n1cnc(C)c1 (centres unmarked)
Observed: cell-free assay
Technique: competition with immobilised ligand
Tested at: 1 µM
Quantity: remaining binding
Serine/threonine-protein kinase 32B (STK32B, Homo sapiens, UniProt Q9NY57): 100%
Mast/stem cell growth factor receptor Kit, autoinhibited (KIT, Homo sapiens, UniProt P10721): 100%
eIF-2-alpha kinase GCN2, C-terminal kinase domain (EIF2AK4, Homo sapiens, UniProt Q9P2K8, S808G): 100%
Rhodopsin kinase GRK1 (GRK1, Homo sapiens, UniProt Q15835): 99%
Protein kinase C theta type (PRKCQ, Homo sapiens, UniProt Q04759): 89%
Cyclin-dependent kinase 18 (CDK18, Homo sapiens, UniProt Q07002): 100%
Calcium/calmodulin-dependent protein kinase type 1D (CAMK1D, Homo sapiens, UniProt Q8IU85): 100%
Atypical kinase COQ8A, mitochondrial (COQ8A, Homo sapiens, UniProt Q8NI60): 100%
Eukaryotic translation initiation factor 2-alpha kinase 1 (EIF2AK1, Homo sapiens, UniProt Q9BQI3): 100%
Ephrin type-A receptor 4 (EPHA4, Homo sapiens, UniProt P54764): 100%
Platelet-derived growth factor receptor alpha (PDGFRA, Homo sapiens, UniProt P16234): 100%
Casein kinase I isoform gamma-3 (CSNK1G3, Homo sapiens, UniProt Q9Y6M4): 86%
Muscle, skeletal receptor tyrosine-protein kinase (MUSK, Homo sapiens, UniProt O15146): 100%
5'-AMP-activated protein kinase catalytic subunit alpha-1 (PRKAA1, Homo sapiens, UniProt Q13131): 100%
Serine/threonine-protein kinase DCLK1 (DCLK1, Homo sapiens, UniProt O15075): 100%
Calcium/calmodulin-dependent protein kinase type II subunit gamma (CAMK2G, Homo sapiens, UniProt Q13555): 100%
Transient receptor potential cation channel subfamily M member 6 (TRPM6, Homo sapiens, UniProt Q9BX84): 100%
Homeodomain-interacting protein kinase 4 (HIPK4, Homo sapiens, UniProt Q8NE63): 100%
Serine/threonine-protein kinase Nek2 (NEK2, Homo sapiens, UniProt P51955): 100%

Block 6
Cell line: mouse MPNST tumor cells
Technique: high-content immunofluorescence imaging
Item: nuclear SOX9
Tested at: 10 µM
Time: 12 h
Notes: mean of 2 replicates
Reference: DMSO control
Direction: higher = more nuclear SOX9
Quantity: nuclear SOX9 intensity
CCN(CCO)CCCC(C)Nc1ccnc2cc(Cl)ccc12 (centres unmarked): 102 % of DMSO and 98 % of DMSO
COc1cc(N)c(Cl)cc1C(=O)OCCN1CCCCC1: 93 % of DMSO
CCS(=O)(=O)Nc1ccc2[nH]c(O)c(C(=Nc3ccc(CN4CCCCC4)cc3)c3ccccc3)c2c1: 96.6 % of DMSO
NS(=O)(=O)c1ccc2c(c1)C1C=CCC1C(c1ccc(Br)cc1)N2 (centres unmarked): 108 % of DMSO

A few entries again (block 2):
Non-receptor tyrosine-protein kinase TNK1 (TNK1, Homo sapiens, UniProt Q13470); binding, competition with immobilised ligand: 34%
Citron Rho-interacting kinase (CIT, Homo sapiens, UniProt O14578); binding, competition with immobilised ligand: 60%
